Measured values of several laboratories.
“And” joins repeats or separate records; there may be more than shown. ± gives the spread as reported.
UniProt P04843, sequence (whole entry, looked up): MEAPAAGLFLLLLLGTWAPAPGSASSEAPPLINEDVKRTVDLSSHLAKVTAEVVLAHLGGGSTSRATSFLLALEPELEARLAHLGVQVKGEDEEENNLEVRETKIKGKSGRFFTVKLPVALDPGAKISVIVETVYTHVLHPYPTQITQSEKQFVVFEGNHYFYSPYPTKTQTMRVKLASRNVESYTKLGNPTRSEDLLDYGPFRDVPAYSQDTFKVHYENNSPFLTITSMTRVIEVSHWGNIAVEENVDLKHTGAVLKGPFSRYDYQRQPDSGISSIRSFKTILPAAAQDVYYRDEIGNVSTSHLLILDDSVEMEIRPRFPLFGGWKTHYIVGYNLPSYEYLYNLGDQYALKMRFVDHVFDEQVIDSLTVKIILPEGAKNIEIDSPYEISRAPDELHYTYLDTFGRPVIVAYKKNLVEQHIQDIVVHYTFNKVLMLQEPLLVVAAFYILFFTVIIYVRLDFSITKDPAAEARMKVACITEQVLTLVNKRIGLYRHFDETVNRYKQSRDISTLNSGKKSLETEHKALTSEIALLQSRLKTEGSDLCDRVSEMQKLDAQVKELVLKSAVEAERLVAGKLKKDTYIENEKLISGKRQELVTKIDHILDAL
UniProt P30411, sequence (whole entry, looked up): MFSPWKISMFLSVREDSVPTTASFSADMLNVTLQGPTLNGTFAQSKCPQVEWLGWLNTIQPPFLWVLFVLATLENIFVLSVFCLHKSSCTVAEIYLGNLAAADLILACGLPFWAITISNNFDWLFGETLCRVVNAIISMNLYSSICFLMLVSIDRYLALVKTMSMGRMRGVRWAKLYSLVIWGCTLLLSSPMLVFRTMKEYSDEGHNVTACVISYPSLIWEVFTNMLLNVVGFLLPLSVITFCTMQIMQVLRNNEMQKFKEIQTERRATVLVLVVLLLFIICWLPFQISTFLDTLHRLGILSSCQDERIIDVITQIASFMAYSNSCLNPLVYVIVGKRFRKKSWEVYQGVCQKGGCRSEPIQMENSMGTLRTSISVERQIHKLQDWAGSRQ
UniProt Q12884, sequence (whole entry, looked up): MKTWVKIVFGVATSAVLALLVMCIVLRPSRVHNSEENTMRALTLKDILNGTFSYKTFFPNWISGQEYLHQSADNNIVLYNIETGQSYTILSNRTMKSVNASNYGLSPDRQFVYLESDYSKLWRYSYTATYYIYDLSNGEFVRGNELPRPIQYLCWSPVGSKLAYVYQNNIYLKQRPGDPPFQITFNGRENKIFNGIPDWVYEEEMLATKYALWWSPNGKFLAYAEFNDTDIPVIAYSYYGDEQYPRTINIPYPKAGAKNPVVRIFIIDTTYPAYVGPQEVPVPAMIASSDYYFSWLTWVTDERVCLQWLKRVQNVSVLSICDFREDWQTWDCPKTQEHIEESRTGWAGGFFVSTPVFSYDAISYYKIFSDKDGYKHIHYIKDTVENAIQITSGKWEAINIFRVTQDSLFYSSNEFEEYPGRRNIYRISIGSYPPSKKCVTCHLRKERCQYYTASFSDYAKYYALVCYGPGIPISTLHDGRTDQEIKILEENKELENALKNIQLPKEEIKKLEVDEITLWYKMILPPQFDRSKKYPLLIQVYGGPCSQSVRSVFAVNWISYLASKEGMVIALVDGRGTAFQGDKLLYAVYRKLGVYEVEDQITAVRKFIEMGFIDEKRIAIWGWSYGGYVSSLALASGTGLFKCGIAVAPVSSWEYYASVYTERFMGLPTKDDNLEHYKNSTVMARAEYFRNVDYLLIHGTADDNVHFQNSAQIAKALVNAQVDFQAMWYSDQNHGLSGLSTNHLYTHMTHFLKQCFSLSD

COc1cc2c(Oc3ccc4[nH]c(C)cc4c3F)ccnc2cc1OCC1(N)CC1
grade 1 or 2 AST elevation (paediatric recurrent refractory sarcoma; 12 mg): 54.5%

Clc1ccc(-c2ccccc2)cc1
glucose (Sprague-Dawley rats, female, serum; inhalation, 23 µg/rat, 2 h after exposure): 165 ± 26 mg/dL

c1ccc2c(c1)-c1cccc3c1c-2cc1ccccc13
log K(PDMS-water) (fresh water; 12 (unit not given), 20 °C, SSP sampler, 100 µm): 5.16 ± 0.02

COc1cc(Nc2ncc(F)c(Nc3ccc4c(n3)NC(=O)C(C)(C)O4)n2)cc(OC)c1OC
IC50 (BDKRB2 (Homo sapiens, UniProt P30411)): > 10 µM

C[C@@H](NC(=O)N1C(=O)[C@H](Cc2ccnc(N)c2)[C@H]1C(=O)O)C1CCCCC1
incidence of serious AEs (healthy adult Chinese volunteers; continuous intravenous infusion, 1.0 mg/kg/h, 5-day infusion, CTCAE 5.0 grading): 0%

CCc1ccc(CC/C=C/c2ccc3c(c2)C(=O)CC3)cc1
chloride (Sprague-Dawley rat, female, serum; oral, 120 mg/kg/day, 14 days): 105 mM

O=C(c1ccc(Cl)cc1)N1CCN2C(=O)N(OC(=O)N3CCOc4ccccc43)C(=O)C2C1 (stereo not drawn)
median ratio (FAP (Homo sapiens, UniProt Q12884); enzyme activity, inhibitor, MS-based ABPP; SW-620 conditioned medium; 10 µM, 1 h, 37 °C; relative to: compound over DMSO, lower = stronger inhibition): 1.29

CCOc1cc(Oc2ccc(C(F)(F)F)cc2Cl)ccc1[N+](=O)[O-]
body weight gain (rat, female; 125 mg/kg, 4 days): 25.7%

C[C@H]1CN(c2n[nH]c3nc(N[C@H]4CC[C@H](NS(=O)(=O)CCC(F)(F)F)CC4)ncc23)CCO1
remaining binding (Dolichyl-diphosphooligosaccharide--protein glycosyltransferase subunit 1 (Homo sapiens, UniProt P04843); Kinobeads competition, measured: RPN1; 0.16 µM, unit not given; relative to: vehicle): 0.94

C=CC(=O)N[C@H]1C=C(C)c2c(-c3cnc4ccccc4c3)c3c(N)ncnc3n2C1
tolerability (measured: body weight; tumour-bearing mice; all doses tested): not toxic

Clc1ccc(-c2ccc(Cl)c(Cl)c2)cc1Cl
log K(PDMS-water) (fresh water; 20 °C, S30-2 sampler, 30 µm): 5.58 ± 0.02

N.N.[Cl][Pt][Cl]
body weight (mouse xenograft model; dose not given, day 6, group mean): 21.6 g

COc1ccc2nc3cc(Cl)ccc3c(Nc3cc(CN4CCCC4)c(O)c(CN4CCCC4)c3)c2n1
monocytes (mouse, blood; intraperitoneal, 57 mg/kg): 3.08%

Clc1cc(Cl)cc(-c2cc(Cl)ccc2Cl)c1
log K(PDMS-water) (fresh water; 20 °C): 5.7 ± 0.04

O[C@H]1CCCN[C@@H]1CCCn1cnc2c(Cl)c(Cl)ccc21
Cmax at steady state geometric LS mean (healthy humans, plasma; oral, 150 mg, with: nintedanib 150 mg): 286 ng/mL

Cn1cncc1-c1c(F)cncc1NC(=O)c1c(N)nn2cc(F)cnc12
grade ≥3 neutrophil decrease incidence (human patients; oral, 130 mg once daily): 22%

COc1ncccc1-c1cnn2ccc(N3CCN(C(=O)OC(C)C)CC3)nc12
drug concentration (mouse nerve ligation model, plasma; oral, 10 mg/kg, 120 min after last dose, repeat dosing day 5): 1800 nM

COc1ccc(-c2c(-c3ccc(C#N)c(F)c3)nc(N3CCC(N)CC3)n(C)c2=O)cc1F
serious adverse event incidence (measured: Hepatic pain; human patients; oral, 60 mg, dose expansion): 5%

CC[C@H](C)[C@@H]1NC(=O)[C@@H]2CCCN2C(=O)[C@H](CC(C)C)NC(=O)[C@H](CC(C)C)NC(=O)CNC(=O)[C@@H](NC(=O)[C@@H](NC(=O)[C@H](CC(=O)O)NC(=O)CNC(=O)[C@@H](NC(=O)[C@H](C)NC(=O)CNC(=O)[C@H](CCCCN)NC(=O)[C@H](CC(C)C)NC(=O)[C@H](CC(C)C)NC(=O)[C@H](CCCCN)NC(=O)CNC(=O)[C@@H](NC(=O)[C@@H](N)CC(C)C)C(C)C)C(C)C)C(C)C)CSSC[C@@H](C(=O)O)NC1=O
log2 fold change (RNA-seq, measured: Col3a1; mouse, traumatic brain injury model, frontal cortex and hippocampus; dose not given; relative to: TBI alone): -2.33

COc1cccc(Oc2ccccc2NC(=O)CNC(=O)c2cccc3ccccc23)c1
eosinophils (esterase-deficient SCID mice, male, blood; oral, 15 mg/kg/day, 14 days, toxicity study; relative to: white cells): 1.4% and 3% and 0%

CN1CC[C@@H](c2c(O)cc(O)c3c(=O)cc(-c4ccc(C(F)(F)F)cc4Cl)oc23)[C@@H]1CO
patients with adverse event (measured: Dyspnea; relapsed or refractory haematological malignancies; oral, dose not given, all arms): 15%

CCN(CCO)CCCC(C)Nc1ccnc2cc(Cl)ccc12 (stereo not drawn)
white cell decrease patients (newly diagnosed glioblastoma patients; oral, 200 mg/dose, grade 1, with: radiotherapy and temozolomide): 33%

COc1cccc2c1CCCC2CCCN1CCN(C2CCCCC2)CC1 (stereo not drawn)
elimination rate constant (CD-1 mouse, male, lung; intraperitoneal, 1 mg/kg): 7.72e-05 s⁻¹

CC(C)C[C@@H]1NC(=O)CNC(=O)[C@H](CC(N)=O)NC(=O)[C@H](CCCNC(=N)N)NC(=O)[C@H]([C@@H](C)O)NC(=O)[C@@H]2CSSC[C@@H]3NC(=O)[C@H]([C@@H](C)O)NC(=O)CNC(=O)[C@H](CCCCN)NC(=O)[C@H](C(C)C)NC(=O)[C@@H]4CSSC[C@H](NC(=O)[C@H]([C@@H](C)O)NC(=O)[C@H](CSSC[C@H](NC(=O)[C@H](C(C)C)NC(=O)[C@@H]5CCCN5C1=O)C(=O)NCC(=O)N[C@@H](CCC(=O)O)C(=O)N[C@@H]([C@@H](C)O)C(=O)N4)NC(=O)CNC(=O)[C@@H]1CCCN1C(=O)[C@H]([C@@H](C)O)NC(=O)[C@H](CC(N)=O)NC3=O)C(=O)N[C@@H](CO)C(=O)N[C@@H](Cc1c[nH]c3ccccc13)C(=O)N1CCC[C@H]1C(=O)N[C@@H](C(C)C)C(=O)N2
remaining peptide (HPLC; ammonium bicarbonate 0.1 M; 180 µM, 7 days, pH 9.0, 37 °C, deamidation stability): 83 ± 3.2%

OCc1ncc2n1-c1ccc(Cl)cc1C(c1ccccc1F)=NC2
geometric LS mean ratio of Cmax (CYP3A4 (human); human, plasma; oral, 2 mg midazolam, Day 1, with: single dose encorafenib and binimetinib; relative to: Day -7): 1.12

C[C@@H](O)[C@@H](CO)NC(=O)[C@@H](CCCNC(=N)N)NC(=O)[C@@H]1CCCN1C(=O)[C@@H]1CSSC[C@H](NC(=O)[C@H](Cc2ccccc2)NC(=O)CN2CCN(CC(=O)O)CCN(CC(=O)O)CCN(CC(=O)O)CC2)C(=O)N[C@@H](Cc2ccc(O)cc2)C(=O)N[C@@H](Cc2ccccc2)C(=O)N[C@@H](CCC(N)=O)C(=O)N[C@@H](CC(N)=O)C(=O)N1 [gallium-68 labelled]
tissue uptake (Wistar rat, healthy, Pituitary gland; intravenous, 8 MBq, 30 min): 0.54 %ID/g

CC(C)(C)[C@]1(O)CCN2C[C@H]3c4ccccc4CCc4cccc(c43)[C@@H]2C1
IC50 (Plasmodium falciparum; W2): 2 µM

CN1CCN(c2ccc(Nc3nccc(-c4cccc(C#N)c4)n3)cc2C(F)(F)F)CC1
toxicity (zebrafish embryos; 50 µM, 5 d): 0%

Clc1ccc(-c2cc(Cl)c(Cl)cc2Cl)c(Cl)c1
literature range factor (polyethylene-water partitioning; PCB compilation; relative to: maximum over minimum K): 3

CO[C@H]1C[C@@H]2CC[C@@H](C)[C@@](O)(O2)C(=O)C(=O)N2CCCC[C@H]2C(=O)O[C@H]([C@H](C)C[C@@H]2CC[C@@H](OC(=O)NCCOCCOCCOCCOCCOCCOCCOCCOCCC(=O)N3CCc4cc(Cn5nc(-c6ccc7oc(N)nc7c6)c6c(N)ncnc65)ccc4C3)[C@H](OC)C2)C[C@@H](O)[C@H](C)/C=C(\C)[C@@H](O)[C@@H](OC)C(=O)[C@H](C)C[C@H](C)/C=C/C=C/C=C/1C
incidence of Mucositis TRAE (patients with advanced solid tumours; intravenous, dose not given, grade ≥3): 10.5%

Cc1cc(C(=O)NC(C)(C)COc2cccc3c2C(N)=NS(=O)(=O)N3)cc(C)n1
revertant ratio (Escherichia coli; Ames test, confirmatory; WP2 uvrA; 3333 µg/plate; relative to: solvent control): 0.8

O=[N+]([O-])c1cc2c3c(ccc2c2ccccc12)[C@@H](O)[C@H](O)C=C3
first palpable mammary tumour (female Sprague-Dawley rats; intramammary, dose not given): 15 weeks

COc1c(OCCCN2CCOCC2)ccc2c1N=C(NC(=O)c1cnc(N)nc1)N1CCN=C21
decreased white cell count incidence (patients with advanced malignancies; intravenous, dose not given, all grades, all cohorts, with: gemcitabine): 30%

CC(=O)N1CCC(C(=O)N2CCN3C(=O)c4cc(-c5ccccc5)ccc4NC(=O)C3C2)CC1 (stereo not drawn)
revertants per plate (Salmonella typhimurium; TA100; 1.58 µg/plate, without S9): 93.5

NC(=Nc1ccccc1)NC(=O)c1nc(Cl)c(N)nc1N
IC50 (Plasmodium falciparum; W2): 6.31 µM

CN1CCN(c2ccc(Nc3nccc(-c4ccncc4)n3)cc2C(F)(F)F)CC1
toxicity (zebrafish embryos; 50 µM, 5 days): 5.6 ± 5.6%

O=C(Nc1ccccc1)C1CCN(C(=O)Oc2cccnc2)CC1
change in Thoughts score (psychotropic effects VAS; healthy women; 20 mg; relative to: pre-dose baseline, direction not given): 1

CCCCCCCCCCCCCCCC(=O)N[C@@H](CCC(=O)NCCCC[C@H](NC(=O)[C@H](CC(=O)O)NC(=O)[C@H](CO)NC(=O)[C@@H](NC(=O)[C@H](Cc1ccccc1)NC(=O)[C@@H](NC(=O)CNC(=O)[C@H](CCC(N)=O)NC(=O)[C@H](CO)NC(=O)[C@@H](N)Cc1c[nH]cn1)[C@@H](C)O)[C@@H](C)O)C(=O)N[C@@H](CO)C(=O)N[C@@H](CCC(=O)O)C(=O)N[C@@H](Cc1ccc(O)cc1)C(=O)N[C@@H](CC(C)C)C(=O)N[C@@H](CC(=O)O)C(=O)N[C@@H](CO)C(=O)N[C@@H](CCC(=O)O)C(=O)N[C@@H](CCCNC(=N)N)C(=O)N[C@@H](C)C(=O)N[C@@H](CCCNC(=N)N)C(=O)N[C@@H](CC(=O)O)C(=O)N[C@@H](Cc1ccccc1)C(=O)N[C@H](C(=O)N[C@@H](C)C(=O)N[C@@H](Cc1c[nH]c2ccccc12)C(=O)N[C@@H](CC(C)C)C(=O)N[C@@H](CCC(=O)O)C(=O)N[C@@H](C)C(=O)NCC(=O)NCC(=O)O)C(C)C)C(=O)O
treatment-related adverse events (measured: Tachycardia; humans CrCl 30 to 45 mL/min; subcutaneous, 100 µg single dose): 9.1%

O=S(=O)(Nc1ccccc1)c1ccc(NC(=S)Nc2ccccc2)cc1
potassium level (male mouse, blood; oral, 20 mg/kg daily, 14 days): 8.87 mmol/L

CC(C)CC(=O)OC[C@H]1O[C@@](C#N)(c2ccc3c(N)ncnn23)[C@H](O)[C@@H]1O
recovery in bile (Sprague-Dawley rat, male, bile; 80 mg/kg, time not given; relative to: dose): 0%

Clc1ccc(Cl)c(-c2cc(Cl)ccc2Cl)c1
relative organ weight (Sprague Dawley rat, thymus; intraperitoneal, 10 mg/kg): 0.0028 g/g body weight

CC[C@H](C)[C@H](NC(=O)[C@H](Cc1ccccc1)NC(=O)[C@H](CCC(=O)O)NC(=O)[C@H](CCCNC(=N)N)NC(=O)[C@H](C)NC(=O)[C@H](C)NC(=O)[C@H](CCC(N)=O)NC(=O)[C@H](CCC(=O)O)NC(=O)[C@H](CCC(=O)O)NC(=O)[C@H](CC(C)C)NC(=O)[C@H](Cc1ccc(O)cc1)NC(=O)[C@H](CO)NC(=O)[C@H](CO)NC(=O)[C@@H](NC(=O)[C@H](CC(=O)O)NC(=O)[C@H](CO)NC(=O)[C@@H](NC(=O)[C@H](Cc1ccccc1)NC(=O)[C@@H](NC(=O)CNC(=O)[C@H](CCC(=O)O)NC(=O)[C@H](C)NC(=O)CCc1c[nH]cn1)[C@@H](C)O)[C@@H](C)O)C(C)C)C(=O)N[C@@H](C)C(=O)N[C@@H](Cc1c[nH]c2ccccc12)C(=O)N[C@@H](CC(C)C)C(=O)N[C@H](C(=O)N[C@@H](CCCNC(=N)N)C(=O)NCC(=O)N[C@@H](CCCNC(=N)N)C(=O)N[C@@H](CCCCNC(=O)COCCOCCNC(=O)COCCOCCNC(=O)CC[C@H](NC(=O)CCCCCCCCCCCCCCCCC(=O)O)C(=O)O)C(=O)NCC(=O)NCC(=O)N[C@@H](CO)C(=O)N[C@@H](CCCCNc1c(NCCCCCN(O)C(=O)CCC(=O)NCCCCCN(O)C(=O)CCC(=O)NCCCCCN(O)C(C)=O)c(=O)c1=O)C(=O)O)C(C)C [zirconium-89 labelled]
tissue uptake (rat, spleen; iv, 3 nmol/kg, 4 h, ex vivo): 0.38 %ID/g
